Results pooled from the literature.
Compare with care: the assays were run in different laboratories.
Sample: plasma
Route: oral

O=C(O)COC[C@H]1CC[C@H](COC(=O)N(c2ccccc2)c2ccc(Cl)cc2)CC1 — AUC (human; 30 µg, multiple doses, twice daily, steady state): 17.7 ng·h/mL
COc1cc(C(=O)NC2CCN(C)CC2)c(F)cc1Nc1ncc(C(F)(F)F)c(Oc2cccc3c2C(=O)N(C)C3)n1 — AUC (human; 200 mg once daily, multiple doses, steady state, patients): 36.8 µM·h
C[C@H](N)C(=O)N1C[C@H](CCCB(O)O)[C@](N)(C(=O)O)C1 — AUC (human; 50 mg twice daily, multiple doses, steady state, patients): 8480 ng·h/mL
CCOc1ccc(Cc2cc([C@]34OC[C@](CO)(O3)[C@@H](O)[C@H](O)[C@H]4O)ccc2Cl)cc1 — AUC (human; 15 mg, single dose, healthy volunteers): 1240 ng·h/mL
CCN1C(=O)CNc2ncc(-c3ccc(-c4nc[nH]n4)nc3C)nc21 — AUC (human; 25 mg, patients): 1720 ng·h/mL
C[C@@H](N)c1cc(Cl)ccc1Cn1c(=S)[nH]c(=O)c2[nH]ccc21 — AUC (human; 10 mg, multiple doses, once daily, healthy volunteers): 1.08 µM·h
CN1C(=O)[C@@H](NC(=O)c2nnc(Cc3ccccc3)[nH]2)COc2ccccc21 — AUC (male human; 60 mg twice daily, multiple doses): 3170 ng·h/mL
Nc1ccc(-c2nc([C@H]3CCc4cc(-c5cc(Cl)ccc5-n5cnnn5)cc(=O)n43)c(F)[nH]2)c(F)n1 — AUC (human; 80 mg, single dose, fed): 8630 ng·h/mL
CCn1c(C(=O)c2cc(C)cc(C#N)c2)c(C(C)C)c(=O)[nH]c1=O — AUC (human; 75 mg, multiple doses, once daily, steady state, healthy volunteers): 3700 ng·h/mL

Excerpt of the above:
CN1C(=O)[C@@H](NC(=O)c2nnc(Cc3ccccc3)[nH]2)COc2ccccc21 — AUC (male human; 60 mg twice daily, multiple doses): 3170 ng·h/mL
